# Assay results of several laboratories.
# A part holds a random share of what one study measured. Positions count from the first letter of the parent shown.

# Series 1
# Target: CCNB3, cyclin fold, Cln2 fusion (human)
# Technique: yeast growth competition, sequencing
# Sample: yeast
# Setting: weak parent motif
# Reference: not given
# Reading: higher = stronger binding
# Parent: SLBP docking peptide (human); ARYKRKLLINDFG
Variant,normalised enrichment score
ARYKRKLLRNDFG [I9R],-0.134
ARYKRKLLIDDFG [N10D],0.103
ARYKKKLLINDFG [R5K],0.309
IRYKRKLLINDFG [A1I],0.0975
ARYKRHLLINDFG [K6H],-0.715
ARYKRKLLSNDFG [I9S],0.704
ARYKRKLLIWDFG [N10W],0.435
ARYKRMLLINDFG [K6M],-0.000153
ARYKRKPLINDFG [L7P],0.213
QRYKRKLLINDFG [A1Q],-0.55
ARYKRKLLINDQG [F12Q],0.103
ARYKRKLLINDEG [F12E],-0.0449
ARYKRKLLINDMG [F12M],-0.274
ARYKRKILINDFG [L7I],-0.51
ARRKRKLLINDFG [Y3R],0.125
HRYKRKLLINDFG [A1H],-0.107
ARYKHKLLINDFG [R5H],0.491
ARYKRLLLINDFG [K6L],0.514
ARYKRKLLINDFR [G13R],0.0308
ARYKRKLLIYDFG [N10Y],0.219
ARCKRKLLINDFG [Y3C],0.0512
ARDKRKLLINDFG [Y3D],0.424
ARYKRKLWINDFG [L8W],0.52
AHYKRKLLINDFG [R2H],0.115
ARYKRKLLINDHG [F12H],-0.136

# Series 2
# Target: Interferon regulatory factor 5, full length, phosphomimetic (IRF5, Homo sapiens, UniProt Q13568-2, residues 1-514, S451D/S453D/S456D/S462D)
# Technique: protein-binding microarray
# Molecule type: double-stranded DNA, one strand shown
# Sample: in vitro
# Concentration: 940 nM top
# Setting: 60-bp whole probe
# Together with: salmon DNA 0.4 mg/ml
# Reference: random background probes
# Reading: higher = stronger binding
# Shared flanks, not repeated: GCCTAGCAC … GTCTTGATTCGCTTGACGCTGCTG
Sequence,fitted relative affinity [z-score]
GTATATATGTGTATATATAAGTGCTAG,0.515
TCAGGTATCGGACTGGGTTAGTGCTAG,2.49
GCCGGACTGGACACTGGGGACGTGCTA,-0.649
GACGGACTGCTTTTCCAGACGTGCTAG,-0.416
GACGGACTTGACACTGGGGACGTGCTA,-0.403
CTCTGGGGAGATCAGCGCATGTGCTAG,-0.505
GCCCATCTCTGCTCCTTCTGGTGCTAG,0.733
GACGGTTTCGGGTATCGCGACGTGCTA,9.52
GACGGACTGGGTTTCGGGCCGTGCTAG,2.47
GACGGACTGTGTTTCGGGACGTGCTAG,0.402
TTAGATTTCAGTAACGATTAGTGCTAG,0.752
GACGGCTTCCTACTGCTGACGTGCTAG,-0.352
TCAAATTTTTGCATCGTACTGTGCTAG,0.0894
TCATCTTCAGGTTCTCCCACTGTGCTA,0.75
TCACATTTTTTTTCATCACTGTGCTAG,1.86
TCATCTTTCACTGGTCCTACTGTGCTA,1.37
GACGAGATCGGGTATCGAGACGTGCTA,1.35

# Series 3
# Target: Histone acetyltransferase KAT6A, both winged helices, GST fusion (KAT6A, Homo sapiens, UniProt Q92794, residues 1-181)
# Technique: protein binding microarray
# Molecule type: double-stranded DNA, one strand shown
# Sample: in vitro
# Concentration: not given
# Setting: 8-mer, flanks averaged, mean of 2 arrays, mostly near background
# Reference: not given
# Reading: higher = stronger binding
# Target sequence (chain): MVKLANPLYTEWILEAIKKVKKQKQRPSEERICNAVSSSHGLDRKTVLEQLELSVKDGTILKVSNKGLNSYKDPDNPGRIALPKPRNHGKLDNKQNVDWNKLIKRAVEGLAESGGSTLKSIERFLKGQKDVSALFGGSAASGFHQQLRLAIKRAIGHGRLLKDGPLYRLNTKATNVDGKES
Sequence,E-score
GAGCATAC,-0.113
AAAGGACG,0.0224
CCGGGACC,0.219
GGCCTTCA,0.0487
AGCGCTGG,0.195
AGCGAGGA,-0.057
CCTTTGAG,-0.0891
CGTATTTA,-0.00713
ATTATCAG,-0.0267
GACGAGAC,-0.061
GAAACCCA,-0.0391
CTAAAGCC,-0.101
CATCCGAA,0.000445
GGAGCGAA,0.0437
ACCATGCC,0.0736
TAAACATA,-0.0156

# Series 4
# Target: Probable WRKY transcription factor 33, C-terminal DNA-binding domain (WRKY33, Arabidopsis thaliana, UniProt Q8S8P5, residues 346-449)
# Technique: DNA-protein interaction ELISA
# Molecule type: double-stranded DNA, one strand shown
# Sample: in vitro, bacterial lysate
# Concentration: not given
# Setting: whole dsDNA probe, crude lysate protein
# Reference: highest signal in screen
# Reading: higher = stronger binding
# Target sequence (chain): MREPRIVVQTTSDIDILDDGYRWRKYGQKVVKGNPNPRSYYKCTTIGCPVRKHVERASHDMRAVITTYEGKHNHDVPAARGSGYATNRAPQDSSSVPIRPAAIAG
Sequence,relative absorbance
AAAAAAACGGGTTGTGAATGTGGAAGAAAA,41.3 % of maximum
AAAAAATAAATCGCGGCTACTGCTTCAAAA,47.6 % of maximum
AAAAAACCGGCACGATTTGGATATTCAAAA,47.6 % of maximum
AAAAAAAAGTGCCAACGTTCAAGAAAAA,42.1 % of maximum
AAAAAATTACGTTTGTATTTGTAAAA,39.7 % of maximum
AAAAAAAGGGTCCGGTGCATACATGTAAAA,63.9 % of maximum
AAAAAATACTCTTCCTCGTTCTTGGTAAAA,32 % of maximum
AAAAAATATTCCGCTTTTGGCTGAATAAAA,36.7 % of maximum
AAAAAACCTTCCCCCTCTTCTGCCTTAAAA,30.4 % of maximum
AAAAAATAGTGTGATTGGTATCCAGTAAAA,56.6 % of maximum
AAAAAAGTAGGTGCTGATGCTGGCCGAAAA,29.2 % of maximum
AAAAAACGGTCGCGATCGTTAATGATAAAA,86.9 % of maximum
AAAAAATTGTGCCTCTGCCCTCGCCTAAAA,32.7 % of maximum
AAAAAAGCTGTCACTGTAGTCGGTCCAAAA,38.9 % of maximum
AAAAAATCAGTCTGAGACTTACAACTAAAA,71.8 % of maximum
AAAAAAGCCTTTACCCTTGTTCCTCTAAAA,42 % of maximum
AAAAAAAATTAGTCTCTTCGTCTCCCAAAA,84.6 % of maximum

# Series 5
# Target: RING finger protein unkempt homolog, zinc fingers 1-6, GST-SBP tag (UNK, Homo sapiens, UniProt Q9C0B0, residues 30-357)
# Technique: RNA Bind-n-Seq
# Molecule type: RNA
# Sample: in vitro
# Concentration: not given
# Setting: RNA with constant flanks, human and mouse sites, ends assumed
# Reference: input RNA pool
# Reading: higher = stronger binding
# Shared flanks, not repeated: GGGAGUUCUACAGUCCGACGAUC … CAACAGAGGAUUGAGCAUCA
# Residues (chain): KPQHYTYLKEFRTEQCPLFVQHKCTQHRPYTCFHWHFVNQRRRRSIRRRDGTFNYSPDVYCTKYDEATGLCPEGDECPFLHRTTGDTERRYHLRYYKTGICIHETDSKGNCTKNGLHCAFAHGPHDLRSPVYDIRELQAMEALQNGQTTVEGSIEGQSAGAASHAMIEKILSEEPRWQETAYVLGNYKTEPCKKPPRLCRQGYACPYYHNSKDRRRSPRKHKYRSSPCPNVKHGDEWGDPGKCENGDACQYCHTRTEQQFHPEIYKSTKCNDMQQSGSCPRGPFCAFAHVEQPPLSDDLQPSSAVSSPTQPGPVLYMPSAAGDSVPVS
Sequence,bound/input enrichment [ratio]
UAUGCAUUAGCAAAAGCUGAUUUCGAACAGAAAAUGACAGAAACAGCUCAGAAAUUUCAAGAUAUUGAAGAAACUCAUCUCAUUCACAUAAAGGAAAUUAUAGGAUCCUUGUCAAAUGCU,0.658
CUGUACUGGAAGCAUGCUCCAAAGACCUGUAAGAACUUUGCUGAGUUGGCUCGUCGAGGUUACUACAAUGGCACAAAAUUCCACAGAAUUAUCAAAGACUUCAUGAUCCAAGGAGGUGAC,0.185
UAUGAAGUAUUUCAGACCCAGUAGUAGAACAUCACUCUGCCACUCACUCCUUUAUCUCCUACUAGUUAUUUAAAUUGGACUUUUAAUAUCCUACCAGCUGCUCUUCAGACACACAUGGUG,20.9
GGAGUUUUUGGUGGCCCGUACCCGUUUGGCAUUGAUCCGAUUUGGAACAUUGCAACCAACAAGCUGACCUUCCUCAACUCCUUCAAGAUGAAGAUGUCUGUUAUCCUCGGCAUCAUCCAC,0.0759
CCUCUUUUCCAGUCUCAUGUUGAAGAUCUUUAUGUAGAAGGACUUCCUGAAGGAAUUCCUUUUAGAAGGCCAUCUACUUACGGAAUUCCUCGCCUGGAGAGGAUAUUACUUGCAAAGGAA,0.178
AGUGCGCUUAGCACCAGCACUGGCUUUGGAGGCAUACUCAGCACCAGUGUCUGUUUUGGUGGCUCUCCCAGCUCCAGUGGUAGCUUUGGUGGUACACUCAGUACCAGUAUCUGCUUCGGU,0.0699
AAAAGUGAAAUAACAUUAAAGGUGAAUGUGAGGCUUCUACUUUUAUCCAAAAGGAGCUAUAUUAGCUAGGCUGUUUCUGAUAUCCAAUCAUUGGUUUAACAAUAAAGGCAAUUUGUUUAA,0.562
GAGUAUUAUUUACAGACCUGAAGGAAGGUGGGCUUAACCCCAAGGCUAAGUGUAAAUGUUUCUUGAAUUGAUUCUUUCUGUGGUACAAGUUAACACCUGUGUAUAUCAUAUCUGUAUAUA,0.156
CCAGCCCCAGUGCCAUCCAGGAGAAACCCCCCUGGCGGCAAGUCCAGCCUGGUCUUGGGUUAGCUUCUUGUGUUGGAACUCUGUCCUUCUGUCUGUCUGUUUGUUGUCCCAUGCUUGGGA,0.337
GUUGUGGUCUGAUCAGUUAAUUUGUAUGUGGCAAUGUGUGCUUUCAUACAGUUACUGACUUAUGAAUGAUUGAUUUGACAGAGACCCAAGCUGCCCAUUUCACUUAUGGGUUUUAAAUAA,0.0811
AAUUCAUCUCUUUUUAUAUGUCCGAAAACGGCCGAGCUUUUCAGCAGUGGCUGGCUUGGCCGACUCUGCCGUCCCUGGCAGAGCGUUGUUACUGUUGCUCCUUAGCAGCUGCUGCCUGGU,0.855

# A few entries again (series 4):
Sequence,relative absorbance
AAAAAAGCCTTTACCCTTGTTCCTCTAAAA,42 % of maximum
AAAAAAGTAGGTGCTGATGCTGGCCGAAAA,29.2 % of maximum
AAAAAATATTCCGCTTTTGGCTGAATAAAA,36.7 % of maximum
AAAAAATACTCTTCCTCGTTCTTGGTAAAA,32 % of maximum
